Assay results gathered from unrelated publications.
± marks the error that the study gave.

COc1ccc(C)cc1NC(=O)OC1CC2CCCC(C1)N2Cc1ccc(CC[18F])cc1 (stereo not shown)
tissue uptake (BALB/c mice, EMT6 tumour, brain; 1 h): 1.55 ± 0.4 %ID/g

COc1cc2ncnc(Oc3cccc(N[11C](=O)Nc4cc(C(C)(C)C(F)(F)F)on4)c3)c2cc1OC
tissue uptake (Balb/c nude mouse, female, A375 melanoma xenograft, large intestine; 6.6 MBq, 30 min): 4.88 ± 0.25 %ID/g

CCN(CC)c1ccc2c(-c3ccccc3C(=O)OCCOCC[18F])c3ccc(=[N+](CC)CC)cc-3oc2c1
tissue uptake (rat, kidney; 60 min): 9.28 ± 0.66 %ID/g

N=C(N)NCc1ccc(C(=O)NCCCC[C@H](NC(=O)CCCCCCC(=O)NCCCC[C@H](NC(=O)N[C@@H](CCC(=O)O)C(=O)O)C(=O)O)C(=O)O)cc1[211At]
tissue uptake (SCID mouse, PC-3 xenografts, thyroid; 2 h): 1.03 ± 0.26 %ID/g

CCCC[C@H](NC(=O)CN1CCC(NC(=O)CN2CCC(NC(=O)CN3CCN(CC(=O)O)CCN(CC(=O)O)CCN(CC(=O)O)CC3)CC2)CC1)C(=O)N[C@H]1CC(=O)NCCCC[C@@H](C(N)=O)NC(=O)[C@H](Cc2c[nH]c3ccccc23)NC(=O)[C@H](CCCNC(=N)N)NC(=O)[C@@H](Cc2ccccc2)NC(=O)[C@H](Cc2c[nH]cn2)NC1=O [gallium-68 labelled]
tissue uptake (C57BL/6J mice male B16-F10 tumour, blood; 1 h post injection, unblocked): 0.5 ± 0.2 %ID/g

CC(C)C[C@@H](NC(=O)[C@@H](CCCNC(=N)N)NC(=O)[C@@H](Cc1c[nH]cn1)NC(=O)[C@@H](Cc1c[nH]c2ccccc12)NC(=O)[C@@H](Cc1c[nH]cn1)NC(=O)[C@@H](Cc1ccccc1)NC(=O)[C@H](NC(=O)[C@@H](Cc1ccc(O)cc1)NC(=O)CNC(=O)CNC(=O)CCOCCOCCOCCNC(=O)CN1CCN(CC(=O)O)CCN(CC(=O)O)CC1)[C@H](C)O)C(=O)N[C@H](CC(N)=O)C(=O)N1CCC[C@@H]1C(=O)O [gallium-68 labelled]
tissue uptake (male C57BL/6 mice, tumour; intravenous, 1.85 MBq, 60 min, with: GP12 blocking): 0.66 ± 0.17 %ID/g

N=C(N)NCc1ccc(C(=O)NCCCC[C@H](NC(=O)N[C@@H](CCC(=O)O)C(=O)O)C(=O)O)cc1[211At]
tissue uptake (SCID mouse, PC-3 xenografts, bone; 1 h): 0.87 ± 0.28 %ID/g

O=C(c1ccc(F)cc1)C1CCN(C2Cc3c(cccc3OCC[18F])CC2O)CC1 (single isomer, unassigned; (-))
tissue uptake (Sprague-Dawley rat, male, thalamus; 5 min post-injection): 0.691 %ID/g

N=C(N)NCc1ccc(C(=O)NCCCC[C@H](NC(=O)N[C@@H](CCC(=O)O)C(=O)O)C(=O)O)cc1[131I]
tissue uptake (SCID mouse, PC-3 xenografts, brain; 14 h): 0.03 %ID/g

CCN(CC)c1ccc2c(-c3ccccc3C(=O)OCCC[18F])c3ccc(=[N+](CC)CC)cc-3oc2c1
tissue uptake (rat, skin; 60 min): 0.2 ± 0.07 %ID/g

CN[C@](C)(C[18F])C(=O)O
tissue uptake (SCID mouse U87 xenograft, spleen; 15 min, post injection): 12 ± 1.9 %ID/g

CCNc1cc2[o+]c3cc(NCC)c(C)cc3c(-c3ccccc3C(=O)OCCOCC[18F])c2cc1C
tissue uptake (rat, blood; 60 min): 0.07 ± 0.01 %ID/g

CN(C)c1ccc(C(=O)NCCCCN2CCN(c3ccccc3O[11CH3])CC2)cc1
tissue uptake (male Sprague Dawley rat, liver; iv, 30 min; reference: untreated): 2.1 %ID/g

O=C(O)CC[C@H](NC(=O)O[C@@H](CCCCNC(=O)c1ccc([18F])cc1)C(=O)O)C(=O)O
tissue uptake (mouse, PC-3 PIP/flu xenografts, blood; 30 min): 2.51 ± 1.75 %ID/g

N=C(N)NCc1ccc(C(=O)NCCCC[C@H](NC(=O)CCCCCCC(=O)NCCCC[C@H](NC(=O)N[C@@H](CCC(=O)O)C(=O)O)C(=O)O)C(=O)O)cc1[131I]
tissue uptake (SCID mouse, PC-3 xenografts, thyroid; 1 h): 0.11 ± 0.13 %ID/g

C=Cc1cc(O)cc2nc(-c3ccc(O)c([76Br])c3)oc12
tissue uptake (female C57BL/6 mouse, liver; 3 h, high dose): 0.36 ± 0.09 %ID/g

Excerpt of the above:
CCN(CC)c1ccc2c(-c3ccccc3C(=O)OCCOCC[18F])c3ccc(=[N+](CC)CC)cc-3oc2c1
tissue uptake (rat, kidney; 60 min): 9.28 ± 0.66 %ID/g

N=C(N)NCc1ccc(C(=O)NCCCC[C@H](NC(=O)N[C@@H](CCC(=O)O)C(=O)O)C(=O)O)cc1[211At]
tissue uptake (SCID mouse, PC-3 xenografts, bone; 1 h): 0.87 ± 0.28 %ID/g
